Measurements from different studies.
A part holds a random share of what one study measured.

Set 1
Target: RNA binding protein fox-1 homolog 2, RRM domain, GST-SBP tag (RBFOX2, Homo sapiens, UniProt O43251-10, residues 100-194)
Method: RNA Bind-n-Seq
Form: RNA
Medium: in vitro
Concentration: 365 nM
Notes: natural RNA segment, single round, ends assumed
Baseline: no-protein control
Direction: higher = stronger binding
Target sequence (chain): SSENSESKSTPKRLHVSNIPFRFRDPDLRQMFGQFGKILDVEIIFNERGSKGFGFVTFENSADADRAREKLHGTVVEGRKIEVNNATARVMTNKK
`GGGAGUUCUACAGUCCGACGAUCCAGAUCCUGCUGGAGGGUGGUUCUCUUUAGCACUGUCCACUUUGAAUGCCGAGUGUCAUAAGAAAUUGCAUGCUAUCUUCACUCACAAUCCUGCCCUUCCCUCACAGAGCUGGAAUUCUCGGGUGCCAA`: “RBNS enrichment (R)” 25.2.
`GGGAGUUCUACAGUCCGACGAUCCAAUCUAUGGGACUAGGGGGAUUGGCAUCAAGUUGACACCCUUGAACCUGCUAUGGCCUUCAGCAGUCACCAUCAUCCAGACCCCCCGGGCCUCAGUUUCCUCAAUCAUAUGGAAUUCUCGGGUGCCAA` — result for “RBNS enrichment (R)”: 0.461.
`GGGAGUUCUACAGUCCGACGAUCAUGGGCAGAAUGGACGGGGUGGGCCACCCAGCCAGGCCACCUCUCCCCAGACCCCUGCUGCCAGCCACCAGCGCCAGCCUCGGGGACCUCCGGCCGUCCCUACCGACAGUUGGAAUUCUCGGGUGCCAA` — result for “RBNS enrichment (R)”: 0.197.
`GGGAGUUCUACAGUCCGACGAUCCAUCUUCCAAUCCCUGGAAAAGUCUGGUCUGAGUGUGACUUGGGAAGCUUUCAGUGCUGCUGUUUGGCCCAGCUCAUUACUUUCUCCCUUUCUCUACCACAGCAAACACAUGGAAUUCUCGGGUGCCAA` — result for “RBNS enrichment (R)”: 0.379.

Set 2
Target: Prothrombin, mature alpha-thrombin (F2, Homo sapiens, UniProt P00734)
Method: aptamer microarray, sandwich
Form: DNA with 2'F-ANA
Medium: in vitro
Concentration: 200 nM
Notes: whole 15-mer aptamer, many near background
Added: Cy3 exosite-II aptamer, 400 nM
Direction: higher = stronger binding
Oligonucleotide: GGTTGGTGTGGTTGG
Under “mean fluorescence intensity”, `2'F-ANA at 1 2 4 8 9 10 11 12 13` is recorded as 55.3 a.u.
`2'F-ANA at 2 4 5 6 7 10 11 12 13 14`: “mean fluorescence intensity” 50.5 a.u.
For `2'F-ANA at 3 5 7 8 9 10 11 12 13 14`, “mean fluorescence intensity” read 56.4 a.u.
`2'F-ANA at 3 5 6 7 10 11 12 13 15`: “mean fluorescence intensity” 57.8 a.u.
For `2'F-ANA at 1 3 5 6 7 8 10 11 15`, “mean fluorescence intensity” read 49.8 a.u.
For `2'F-ANA at 1 6 7 8 9 10 11 12 14`, “mean fluorescence intensity” read 53.3 a.u.

Set 3
Target: Histone acetyltransferase KAT6A, winged helix 2, GST fusion (KAT6A, Homo sapiens, UniProt Q92794, residues 85-181)
Method: protein binding microarray
Form: double-stranded DNA, one strand shown
Medium: in vitro
Concentration: not given
Notes: 8-mer, flanks averaged, mean of 2 arrays, mostly near background
Baseline: not given
Direction: higher = stronger binding
Target sequence (chain): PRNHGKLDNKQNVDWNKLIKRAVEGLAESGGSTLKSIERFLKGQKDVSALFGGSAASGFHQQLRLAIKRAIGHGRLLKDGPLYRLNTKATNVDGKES
`ACATAACT` has an E-score of -0.246.
With `AGGTACGA` the E-score was -0.212.
With `CTAACGCA` the E-score was 0.0415.
`ACATAAGG` gave an E-score of -0.171.
`CGGCACTC` gave an E-score of 0.038.
For `CAACCCTC`, the E-score was 0.0324.
The E-score of `GAGGTATA` is reported as -0.135.

Further values, each from its own experiment
`PhoQ, residues 284 288 289 292 302 303 TGYLSA` gave a fold induction of 2.51 (PhoP, residues 12 14 15 18 19 AGCRL (Escherichia coli, UniProt P23836); Sort-seq, measured: YFP reporter; E. coli; PhoQ-PhoP variant library, added: 10 µM Mg2+; baseline: high Mg2+ state, higher = stronger signaling).

Repeated from above (set 1):
`GGGAGUUCUACAGUCCGACGAUCCAGAUCCUGCUGGAGGGUGGUUCUCUUUAGCACUGUCCACUUUGAAUGCCGAGUGUCAUAAGAAAUUGCAUGCUAUCUUCACUCACAAUCCUGCCCUUCCCUCACAGAGCUGGAAUUCUCGGGUGCCAA`: “RBNS enrichment (R)” 25.2.
`GGGAGUUCUACAGUCCGACGAUCCAAUCUAUGGGACUAGGGGGAUUGGCAUCAAGUUGACACCCUUGAACCUGCUAUGGCCUUCAGCAGUCACCAUCAUCCAGACCCCCCGGGCCUCAGUUUCCUCAAUCAUAUGGAAUUCUCGGGUGCCAA` — result for “RBNS enrichment (R)”: 0.461.
